{"data": "Experimental data gathered from unrelated publications", "note": "Numbered parts are unrelated; each lists some results of a single study."}
{"data": "Block 1", "target": "TATA-box-binding protein 1 (TBP1, Arabidopsis thaliana, UniProt P28147, residues 1-200, full length assumed)", "technique": "protein-binding microarray", "molecule type": "double-stranded DNA, one strand shown", "medium": "in vitro", "tested at": "not given", "setting": "k-mer, scored over probes, only values ≥0.25", "reading": "higher = stronger binding", "Target sequence (chain)": "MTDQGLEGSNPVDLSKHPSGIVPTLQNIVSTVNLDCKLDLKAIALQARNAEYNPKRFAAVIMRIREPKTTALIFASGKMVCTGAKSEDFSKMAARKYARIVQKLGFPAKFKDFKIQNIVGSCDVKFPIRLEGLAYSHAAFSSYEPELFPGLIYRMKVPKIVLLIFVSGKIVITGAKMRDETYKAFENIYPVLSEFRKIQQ"}
{"Strand": "ATTTAAC", "E-score": 0.379}
{"Strand": "CATATAA", "E-score": 0.443}
{"Strand": "AATAAGA", "E-score": 0.286}
{"Strand": "CCTTTTA", "E-score": 0.395}
{"Strand": "ATATGTG", "E-score": 0.275}
{"Strand": "ATTTAAA", "E-score": 0.463}
{"Strand": "AAGTAAA", "E-score": 0.31}
{"Strand": "AAAAACA", "E-score": 0.274}
{"Strand": "ATGTTAA", "E-score": 0.321}
{"Strand": "AACTTTA", "E-score": 0.259}
{"Strand": "CCATTTA", "E-score": 0.336}
{"data": "Block 2", "target": "Prothrombin, mature alpha-thrombin (F2, Homo sapiens, UniProt P00734)", "technique": "aptamer microarray, sandwich", "molecule type": "DNA with 2'F-ANA", "medium": "in vitro", "tested at": "200 nM", "setting": "whole 15-mer aptamer, many near background", "with": "Cy3 exosite-II aptamer, 400 nM", "reading": "higher = stronger binding", "strand": "GGTTGGTGTGGTTGG"}
{"Modification": "2'F-ANA at 1 2 4 7 8 14 15", "mean fluorescence intensity": "60.8 a.u."}
{"Modification": "2'F-ANA at 2 4 8 9 10 11 14", "mean fluorescence intensity": "102 a.u."}
{"Modification": "2'F-ANA at 2 3 9 10 13 15", "mean fluorescence intensity": "335 a.u."}
{"Modification": "2'F-ANA at 1 4 5 7 9 10 11 12 13", "mean fluorescence intensity": "77.4 a.u."}
{"Modification": "2'F-ANA at 2 6 11 12 13", "mean fluorescence intensity": "508 a.u."}
{"Modification": "2'F-ANA at 3 4 5 6 8 9 10 11 12 14", "mean fluorescence intensity": "86.2 a.u."}
{"Modification": "2'F-ANA at 3 5 6 7 10 11 12 13", "mean fluorescence intensity": "54.7 a.u."}
{"Modification": "2'F-ANA at 1 2 3 4 6 7 10 12 13 14", "mean fluorescence intensity": "58.8 a.u."}
{"Modification": "2'F-ANA at 1 9 10 12 13", "mean fluorescence intensity": "62.9 a.u."}
{"Modification": "2'F-ANA at 1 2 3 5 6 7 9 11 13 15", "mean fluorescence intensity": "62.7 a.u."}
{"data": "Block 3", "target": "RING finger protein unkempt homolog, zinc fingers 1-6, GST-SBP tag (UNK, Homo sapiens, UniProt Q9C0B0, residues 30-357)", "technique": "RNA Bind-n-Seq", "molecule type": "RNA", "medium": "in vitro", "tested at": "not given", "setting": "RNA with constant flanks, human and mouse sites, ends assumed", "relative to": "input RNA pool", "reading": "higher = stronger binding", "all sequences stand within": "GGGAGUUCUACAGUCCGACGAUC … CAACAGAGGAUUGAGCAUCA", "chain of UniProt Q9C0B0 (30-357, looked up)": "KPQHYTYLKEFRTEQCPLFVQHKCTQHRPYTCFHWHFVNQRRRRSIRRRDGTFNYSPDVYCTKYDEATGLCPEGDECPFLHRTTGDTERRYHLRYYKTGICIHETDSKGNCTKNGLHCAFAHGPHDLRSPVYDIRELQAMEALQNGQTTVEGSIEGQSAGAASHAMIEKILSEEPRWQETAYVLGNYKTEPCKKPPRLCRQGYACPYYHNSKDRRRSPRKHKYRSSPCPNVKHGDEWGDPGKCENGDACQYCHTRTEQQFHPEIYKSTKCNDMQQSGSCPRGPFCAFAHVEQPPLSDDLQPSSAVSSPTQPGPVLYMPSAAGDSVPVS"}
{"Strand": "AGUGAAAGACUCUUUUAUUAUAUUGCUGUCUCUUUGUUACCCCAUGAGACUUUGCUAGAGAUUGAAAAUGCAGUGGAGAGCGGCCGGGCACUGCUACCCAUUCUCCAGUGGCACAAGCAC", "bound/input enrichment [ratio]": 0.605}
{"Strand": "AGAGCGUCCCGAGAGCACCCAUCCGUCCAGGAGAAGAAGAAGUCGACCAUCUGGCAGUUCUUCAGCCGCCUCUUCAGCUCUUCCUCCAGCCCCCCUCCGGCCAAGCGCCCCUAUCCCUCG", "bound/input enrichment [ratio]": 0.281}
{"Strand": "UUGAAGGGAAUCAUUAACAGCUUGUUACAAGAAUGGAAAGGUCCACGAACAAAAGAUGAUCUUAGAGCAUAUUUUAUACUGUUACAGAAUCCUCAAUUUAAUAUCACAUCUACAUAUGUC", "bound/input enrichment [ratio]": 1.46}
{"Strand": "AGGAUUAACAAUGGACAACACAAAGCCCAGUCUUACUAUUUAUAUGUACAGUAUUUGGUGAUAGAGAGCAAAGGAAAAACACAUCAGAACAGUUGCCUUAACACUGAAAAACAUACCCUG", "bound/input enrichment [ratio]": 0.151}
{"Strand": "CCCCCAACUGCCAAUGAGAUGGCUGACAUUCAGGUUUCAGCAGCUGCCGCUAGGCCUAAGUCAGCCUUUAAAGUCCAGAAUGCCACCACAAAAGGCCCAAAUGGUGUCUAUGAUUUCUCU", "bound/input enrichment [ratio]": 0.562}
{"Strand": "GAUGAGCAUUCUUAUUUUUUGUUUUGUUUGCCCCAUUUCCUUUUGUGUUUUUAUAGUCUAUAGCAUUUUAAAACUGCUGAUGUUGUUUGCAUUAUUUACAGGCUAAAAACUUAGUAGCAU", "bound/input enrichment [ratio]": 2.62}
{"data": "Other studies, line by line"}
{"Molecule": "PhoQ, residues 284 288 289 292 302 303 TVTVVA", "target": "PhoP, residues 12 14 15 18 19 NMSSL (Escherichia coli, UniProt P23836)", "assay": "Sort-seq, item: YFP reporter", "system": "E. coli", "conditions": "PhoQ-PhoP variant library, with: 10 µM Mg2+", "how to read": "relative to: high Mg2+ state, higher = stronger signaling", "endpoint": "fold induction", "value": 10.9}
{"note": "A few entries again (block 2):"}
{"Modification": "2'F-ANA at 2 3 9 10 13 15", "mean fluorescence intensity": "335 a.u."}
{"Modification": "2'F-ANA at 1 4 5 7 9 10 11 12 13", "mean fluorescence intensity": "77.4 a.u."}
{"Modification": "2'F-ANA at 2 6 11 12 13", "mean fluorescence intensity": "508 a.u."}
